Published values pooled from the literature.
Numbered parts are unrelated; each lists some results of a single study.

Study 1
Target: Phosphate system positive regulatory protein PHO4, full length, GST-tagged (PHO4, Saccharomyces cerevisiae, UniProt P07270, residues 1-312)
Technique: competition protein-binding microarray
Form: double-stranded DNA, one strand shown
Medium: in vitro
Concentration: 2 µM
Notes: whole 60-bp probe, lowest competitor level
With: Cbf1 competitor, 0.05 µM
Reading: higher = stronger binding
Shared flanks, not repeated: … GTCTTGATTCGCTTGACGCTGCTG
Target sequence (chain): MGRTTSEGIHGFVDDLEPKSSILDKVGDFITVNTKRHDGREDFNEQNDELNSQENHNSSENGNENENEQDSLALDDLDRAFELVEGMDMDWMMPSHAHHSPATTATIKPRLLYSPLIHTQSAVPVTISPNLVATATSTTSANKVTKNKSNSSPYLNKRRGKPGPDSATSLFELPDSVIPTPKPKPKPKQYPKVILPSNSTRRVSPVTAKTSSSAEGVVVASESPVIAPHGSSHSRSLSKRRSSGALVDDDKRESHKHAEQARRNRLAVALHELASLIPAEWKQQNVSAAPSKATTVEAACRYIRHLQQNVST
Strand | fluorescence intensity [a.u.]
AGCTCTCTTGTCAGACACGTTTTGTCGAATTTCTTG | 11500
ACCGTTGGTAGAAGCATCGTGGGTAGAAATGGTGGA | 12600
AAAGCGGTAATTTGTTAGGTGGGTGCAGATATCTAT | 4510
CTTTCCCGATCTTGTCACAAAACTTTAGCACATTTG | 3540
GGTACAGCGCCCTGTCATGTTCCCCGATTGCCTGTT | 4980
TGCGCAACAACTTGATCTGTGGGTGTATGTCTAGAA | 4410
CATACCCAACCTTGCAACGTGGGTGAAGATATTTGT | 15400
CTAACGAAGGTTTGTCACGCTACTTACAAGCCAAGT | 5300
TGTGAGGAACAAGCCCACATGTTGAGTTTAAGATGG | 11000
CTAACGAAGGTTTGTCACGATACTTACAAGCCAAGT | 5530
AAATTGGCCACAAGCATCGTGCCGAGCAAATTAAAC | 12100
AAATTACTAAGTTTTCACGTGAAGTACCCCGTATGA | 9090
GACATCTGGCGTAGTCACCTGTCAGAGAAATCGCGG | 4160
CTTCTGTAAATTTGTCACGACACTTGACGCGCCCCG | 4730
CGGGGTTAAGTTTGGTCAGTGGGTGGCTTGCAGCAG | 4320
TGCGCAACAACTTGTCACGACACTTTATGTCTAGAA | 4140
CGTCCTAGCGATTGAAAGGTGGGTGCCATGAGGAAG | 6190
CCACTTTTTTTCAAATGTGTGACGAACCCATACCCC | 5480
GTCTCCACAGCTTTTGACATGACAATCTCGGCGCAA | 3790
ATTCAGGCGGGTTGCCACGTGGCCGTTTATCTAATG | 21600
CGTCCTAGTGATTGCACGGTGGGTGCCATGAGGAAG | 8320
ATCTTTCCCCGCATTCTCGTGGGTACCAAATAAGCT | 9450

Study 2
Target: Interferon regulatory factor 7, full length, phosphomimetic (IRF7, Homo sapiens, UniProt Q92985, residues 1-503, S101K/S471D/S472D/S475D/S476D/S477D/S483D/S484D/S487D)
Technique: protein-binding microarray
Form: double-stranded DNA, one strand shown
Medium: in vitro
Concentration: 250 nM
Notes: 60-bp whole probe
With: salmon DNA 0.4 mg/ml
Relative to: random background probes
Reading: higher = stronger binding
Shared flanks, not repeated: GCCTAGCAC … GTCTTGATTCGCTTGACGCTGCTG
Target sequence (chain): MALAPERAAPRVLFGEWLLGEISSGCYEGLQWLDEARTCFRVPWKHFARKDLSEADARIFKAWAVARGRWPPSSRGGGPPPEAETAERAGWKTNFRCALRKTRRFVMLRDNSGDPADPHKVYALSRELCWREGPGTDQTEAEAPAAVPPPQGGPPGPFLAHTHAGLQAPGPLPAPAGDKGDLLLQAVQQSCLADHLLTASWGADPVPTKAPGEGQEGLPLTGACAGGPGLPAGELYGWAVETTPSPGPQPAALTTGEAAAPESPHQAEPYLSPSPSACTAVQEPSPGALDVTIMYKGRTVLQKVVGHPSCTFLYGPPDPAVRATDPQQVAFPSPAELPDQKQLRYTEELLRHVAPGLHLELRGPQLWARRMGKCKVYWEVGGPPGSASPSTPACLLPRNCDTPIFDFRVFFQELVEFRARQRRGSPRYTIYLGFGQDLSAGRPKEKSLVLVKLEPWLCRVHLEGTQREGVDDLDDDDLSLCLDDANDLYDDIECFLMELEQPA
Strand | log fluorescence [z-score]
TTAAGTATCGGTCTCGGTTAGTGCTAG | 2.57
TCCCTTCAACAGTGCTGGCTGTGCTAG | 0.558
TCAGGTTTCCAAATTGTACTGTGCTAG | 2.22
TTTGAACTGGGGTTTCGATTAGTGCTA | 5.34
TTAGATTTCAGTATGGATTAGTGCTAG | 0.191
TTAGGTTTCGACACTGGGTTTGTGCTA | 3.18
TAGTTTTCATTTTCTGAATGTGTGCTA | 6.16
GACGGTTTCGACACTGGGGCCGTGCTA | 3.66
GACGGACTGCTTTGCCTGACGTGCTAG | -0.242
TTAGAACTGAGTTTCGATTGGTGCTAG | 9.35
GACGGTATCGACTTTCGGGACGTGCTA | 1.42
GAAGGTCTCCTTATCCTGACGTGCTAG | 0.151
GACGGTTTCCGTATCGGGACGTGCTAG | 3.39
TATTTTGGAAACTCACAACAGTGCTAG | 1.79
GACGATCTCAGGTTCGAGACGTGCTAG | 0.29
TTAGGTATCGTGTATCGGTTAGTGCTA | 0.669
CTATATTAGGGAAGTGTGTTGTGCTAG | 1.21
GACGGTTTCGACTATCCGGACGTGCTA | 6.41
TTAGAACTGGGGTATCGACTAGTGCTA | -0.337
AGCACTTTGGCATGTCTTGACGTGCTA | -0.858
TTAGGACTGGGGTCTCGGTTAGTGCTA | 0.317
TTTAGAAAGATTAGGGGTGCGTGCTAG | -0.671
TTAGATATCGGTCTCGGTTAGTGCTAG | 1.57
TTAGGACTGGCTATCGGTTAGTGCTAG | -0.236
GTAGGTATCGGTTTCGGTTAGTGCTAG | 10.7

Study 3
Target: RNA binding protein fox-1 homolog 2, RRM domain, GST-SBP tag (RBFOX2, Homo sapiens, UniProt O43251-10, residues 100-194)
Technique: RNA Bind-n-Seq
Form: RNA
Medium: in vitro
Concentration: 365 nM
Notes: natural RNA segment, single round, ends assumed
Relative to: no-protein control
Reading: higher = stronger binding
Shared flanks, not repeated: GGGAGUUCUACAGUCCGACGAUC … UGGAAUUCUCGGGUGCCAA
Residues (chain): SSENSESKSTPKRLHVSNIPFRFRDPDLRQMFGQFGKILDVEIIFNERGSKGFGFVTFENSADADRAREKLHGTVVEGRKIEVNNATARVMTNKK
Strand | RBNS enrichment (R)
UAAGAGUCCCUGAGAGAGCUUCAGCUUAUAACAAGGCUAAUUUUAGGUUGUACGUCAUUCUCGAUGUUUAACAUGAGAAGCAAGGAAGGCAUGAUUUUUAUCAGUGAUUU | 0.556
AGCUUCAGAUGAAGCUUUAAGCUGCAGUGUUGUGAAGUGAUUAAUUCCCUUUCUACCAACCCCGUGGGAGUUCUACAGUACGGCUGUCCUGACACGGCUCUUGUCUAGGA | 0.295
GUGUGACUUUCUAGAGAAGCCAGGACACCCCUGAGCCUUUCCUGGGAACUCCUAAGGAAGUCACAGGUUCACACCGUGGGGAUUUUCAGGAUAGCAUGGAGACCAGAGAA | 1.99
CACUGCGGUUGUCCACGGUCACAUCUGCCCCAGUGCCUUUGUCCUUCCCUUGGGGCUUGCCGGCCAGACUUCUCUCCCCUGCGGCUCCCACCUCUGCCUGACCCCAGCCU | 0.616
ACCCUCCUGCUCUGAGAGAAGAAAUCGAACUGAGGCUUCUUCUCUGGAGGUAAGGUUGCUGGUGGCCAGCGUAUGACAUCAAGCAGUGACAGUUUUUCACAUUUUGCUCA | 0.291
GUCUUAAGGACCUUGUGAUUAGUCAAUCAACAAACCACAACACUUCCUAGGACCUGUUGUACUCCGUGUAACUAUAGGUCUGAAUAUUUUCUGGGUGGUGGUGGCAAGGG | 0.542
UGGUGGUGGGAGCUUACCGCCACCUAUUCAAGCUCUCAGCUACUCCUGAAACGGGCAGAGAUGAUGAACAGAAGUGUAUGUAAAUACAGCAGCUAGUGGGAGAGCACCAG | 0.539
UCUUUACGUUUGUACUGCUUACCUUUACUUUCUCCACAACAGAGACAAGCAGAUUGGUUGAACCUUAUUUAAUGAGGAGUAACAGGCUGUUUUUAAGUGUUUGCCUGUGG | 0.335
CUUGGUGUGUAUACAUUAGGGGAGGAUAAUCUGAUGCUAACUUUUUUUUUCUCUUUGGUUCUUGAAUAGCUUAGUUUCUUUAAUAACAAGUCAAACUUUAUUACAACAAU | 0.365
GUCCGGAGGAGCAGCUUCGUGCUGCGCGAACUUUAGCAGGAGGACCGAUGAUUAGCAUUUAUGAUGCAGAGACAGAACAACUUCGUAUAGGACCGUACUCCUGGACACCA | 0.366
AACUUUCUGGGGUUUGACUGUUACACUAGACAUGGAUUUCUAAGCUUUAAGUGUGGUUGGUUUAGGAGAGUUUUCCUUGGGAGAGCUAGCCCUGAGGUAGUCAGGGCUAG | 0.674
GUUCCUUCACUAGGACAGGCACCAUGAGUGUGUUUCUAAGUUCCAGAGUCUGUGGGGAGGAUGGUGGGUGGGCAGCCAGCCCUGUUGCUAUGUUGCUUCUUCCACACCCC | 0.469

Study 4
Target: Histone acetyltransferase KAT6A, winged helix 1, GST fusion (KAT6A, Homo sapiens, UniProt Q92794, residues 1-85)
Technique: protein binding microarray
Form: double-stranded DNA, one strand shown
Medium: in vitro
Concentration: not given
Notes: 8-mer, flanks averaged, mean of 2 arrays, mostly near background
Relative to: not given
Reading: higher = stronger binding
Target sequence (chain): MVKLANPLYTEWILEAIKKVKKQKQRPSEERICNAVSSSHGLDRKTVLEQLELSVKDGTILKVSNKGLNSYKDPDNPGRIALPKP
Strand | E-score
TCTTACCA | -0.146
ACGGTGTC | 0.228
AGAACAAT | -0.21
CGACAGAG | -0.045
ATTTAGCA | -0.139
CATAAATA | -0.149
AGCATTGA | -0.217
AGTCTGAC | -0.271
ATTACTTC | -0.0776
ATAATCCC | -0.0454
AGCTGTTC | -0.0871
CTGCCTCA | -0.113
CACGTTCA | -0.0497
GCCCCAAA | -0.0334
CTGGGTCA | -0.195
AACCTCGT | 0.00374
ACCGTGAA | 0.0982
CAACACAG | -0.189
